Measurements from different studies.
Protocols differ between the studies behind these lines. Several values in a cell are separate wells, animals, samples, runs or records. Numbers after ± are the reported error.

CCCC[C@@H]1NC(=O)[C@@H](NC(=O)[C@H](CCC(=O)O)NC(=O)CNC(=O)CN2CCN(CC(=O)O)CCN(CC(=O)O)CCN(CC(=O)O)CC2)CCCCNC(=O)C[C@@H](C(N)=O)NC(=O)[C@H](C(C)C)NC(=O)[C@@H]2CCCN2C(=O)[C@H](CCCNC(=N)N)NC(=O)CNC(=O)[C@H](Cc2c[nH]c3ccccc23)NC(=O)[C@H](CCCNC(=N)N)NC(=O)[C@@H](Cc2ccccc2)NC(=O)[C@H](Cc2c[nH]cn2)NC(=O)[C@H](CCC(=O)O)NC1=O [gallium-67 labelled]
tissue uptake (normal C57 mice, liver; intravenous, 0.037 MBq, 4 h): 0.55 ± 0.14 %ID/g

CCCC[C@H](NC(=O)CN1CCC(NC(=O)CN2CCN(CC(=O)O)CCN(CC(=O)O)CCN(CC(=O)O)CC2)CC1)C(=O)N[C@H]1CC(=O)NCCCC[C@@H](C(N)=O)NC(=O)[C@H](Cc2c[nH]c3ccccc23)NC(=O)[C@H](CCCNC(=N)N)NC(=O)[C@@H](Cc2ccccc2)NC(=O)[C@H](Cc2c[nH]cn2)NC1=O [gallium-68 labelled]
tissue uptake (C57BL/6J mice male B16-F10 tumour, muscle; 2 h post injection, unblocked): 0.1 %ID/g

N=C(N)NCCC[C@H](NC(=O)CON=C[C@H](F)[C@@H](O)[C@H](O)[C@H](O)CO)C(=O)NCC(=O)N[C@@H](CC(=O)O)C(=O)O [fluorine-18 labelled]
tissue uptake (nude mice U-87 MG tumour, brain; intravenous, 0.5 h): 0.58 ± 0.04 %ID/g

O=C([O-])CN1CCN(CC(=O)[O-])CCN(CC(=O)[O-])CCN(CC(=O)[O-])CC1.[64Cu+2]
tissue uptake (healthy athymic nude mice, muscle; intravenous, 1 h): 0.09 %ID/g

O=C(NCC1OC2CCC=CCCC2O1)c1ccc(COCCOCCOCC[18F])cc1 (stereo not shown)
tissue uptake (female BALB/c nude mice, brain; intravenous, 15 min): 2.6 ± 0.1 %ID/g

CCCC[C@H](NC(=O)CNC(=O)CNC(=O)CN1CCN(CC(=O)O)CCN(CC(=O)O)CC1)C(=O)N[C@H]1CC(=O)NCCCC[C@@H](C(N)=O)NC(=O)[C@H](Cc2c[nH]c3ccccc23)NC(=O)[C@H](CCCNC(=N)N)NC(=O)[C@@H](Cc2ccccc2)NC(=O)[C@H](Cc2c[nH]cn2)NC1=O [gallium-67 labelled]
tissue uptake (female C57 mice, B16/F1 melanoma, pancreas; intravenous, 0.037 MBq, 2 h): 0.54 ± 0.13 %ID/g

CN1C(=O)[C@@H](Cc2ccc(O)c(I)c2)NC(=O)CNC(=O)[C@H](Cc2ccc3ccccc3c2)NC(=O)[C@H](CCCNC(=N)N)NC(=O)[C@H]1CCCNC(=O)c1ccc(CNC(=O)CN2CCN(CC(=O)O)CCN(CC(=O)O)CCN(CC(=O)O)CC2)cc1 [lutetium-177 labelled]
tissue uptake (refers to: 177Lu radioactivity; female CB-17 SCID mice, Daudi xenograft, small intestine; intravenous, 0.16 nmol per mouse, 1 h): 0.9 ± 0.2 %ID/g

CC(C)[C@H](NC(=O)[C@@H]1CCCN1C(=O)[C@H](CCCNC(=N)N)NC(=O)[C@H](CS)NC(=O)[C@H](Cc1c[nH]c2ccccc12)NC(=O)[C@H](CCCNC(=N)N)NC(=O)[C@@H](Cc1ccccc1)NC(=O)[C@H](Cc1c[nH]cn1)NC(=O)[C@H](CCC(=O)O)NC(=O)[C@H](CS)NC(=O)[C@H](CS)NC(=O)CNC(=O)[C@@H]1CC(=O)N[C@@H](CCCNC(=N)N)C(=O)NCC(=O)N[C@@H](CC(=O)O)C(=O)N[C@H](Cc2ccc(O)cc2)C(=O)N1)C(N)=O [technetium-99m labelled]
tissue uptake (female mice, B16/F1 melanoma, intestines; intravenous, dose not given, 2 h, with: 10 µg NDP-MSH co-injected): 2.49 ± 1.1 %ID

CCCC[C@H](NC(=O)CNC(=O)CNC(=O)CN1CCN(CC(=O)O)CCN(CC(=O)O)CCN(CC(=O)O)CC1)C(=O)N[C@H]1CC(=O)NCCCC[C@@H](C(N)=O)NC(=O)[C@H](Cc2c[nH]c3ccccc23)NC(=O)[C@H](CCCNC(=N)N)NC(=O)[C@@H](Cc2ccccc2)NC(=O)[C@H](Cc2c[nH]cn2)NC1=O [gallium-67 labelled]
tissue uptake (female C57 mice, B16/F1 melanoma, brain; intravenous, 0.037 MBq, 0.5 h): 0.25 ± 0.07 %ID/g

O=C([O-])CN1CCN(CC(=O)[O-])CCN(CC(=O)NCCc2ccc3c(c2)C2C=CCC2C(c2cc4c(cc2Br)OCO4)N3)CCN(CC(=O)[O-])CC1.[111In+3] (stereo not shown)
tissue uptake (SPECT/CT imaging; mice with Hec50 tumour xenograft, intestine; 1 h): 64.9 % ID

O=C([O-])c1cccc(CN(CCN(Cc2cn(Cc3ccccc3)nn2)Cc2cccc(C(=O)[O-])n2)Cc2cn(Cc3ccccc3)nn2)n1.[64Cu+2]
tissue uptake (healthy athymic nude mice, muscle; intravenous, 24 h): 0.48 %ID/g

NC12CNCCNCC(NCc3ccc(CNC(=O)CCCC(=O)NCc4ccc(-c5nncnn5)cc4)cc3)(CNCCNC1)CNCCNC2.[64Cu+2]
tissue uptake (athymic nude mice SW1222 xenograft, kidney; 1 h post injection, 24 h accumulation interval, with: huA33-TCO pretargeting): 3.08 %ID/g and 3.1 %ID/g

CC(C)[C@H](NC(=O)[C@@H]1CCCN1C(=O)[C@H](CCCNC(=N)N)NC(=O)[C@H](CS)NC(=O)[C@H](Cc1c[nH]c2ccccc12)NC(=O)[C@H](CCCNC(=N)N)NC(=O)[C@@H](Cc1ccccc1)NC(=O)[C@H](Cc1c[nH]cn1)NC(=O)[C@H](CCC(=O)O)NC(=O)[C@H](CS)NC(=O)[C@H](CS)NC(=O)[C@@H]1CC(=O)N[C@@H](CCCNC(=N)N)C(=O)NCC(=O)N[C@@H](CC(=O)O)C(=O)N[C@H](Cc2ccc(O)cc2)C(=O)N1)C(N)=O [technetium-99m labelled]
tissue uptake (C57 mice B16/F1 melanoma female, kidneys; iv, 0.037 MBq, 24 h): 2.8 ± 0.84 %ID/g

Excerpt of the above:
N=C(N)NCCC[C@H](NC(=O)CON=C[C@H](F)[C@@H](O)[C@H](O)[C@H](O)CO)C(=O)NCC(=O)N[C@@H](CC(=O)O)C(=O)O [fluorine-18 labelled]
tissue uptake (nude mice U-87 MG tumour, brain; intravenous, 0.5 h): 0.58 ± 0.04 %ID/g
